Results from different studies.
Lines come from different studies, so protocols differ. Numbers after ± are the reported error.
rep nsp13 helicase: Replicase polyprotein 1ab, nsp13 helicase (rep, Severe acute respiratory syndrome coronavirus 2, UniProt P0DTD1)
Ache: Acetylcholinesterase (Ache, Mus musculus, UniProt P21836)

Amino acid sequences for entries named in this document (tags omitted). Residues count along the entry.
UniProt P21836, whole entry, looked up: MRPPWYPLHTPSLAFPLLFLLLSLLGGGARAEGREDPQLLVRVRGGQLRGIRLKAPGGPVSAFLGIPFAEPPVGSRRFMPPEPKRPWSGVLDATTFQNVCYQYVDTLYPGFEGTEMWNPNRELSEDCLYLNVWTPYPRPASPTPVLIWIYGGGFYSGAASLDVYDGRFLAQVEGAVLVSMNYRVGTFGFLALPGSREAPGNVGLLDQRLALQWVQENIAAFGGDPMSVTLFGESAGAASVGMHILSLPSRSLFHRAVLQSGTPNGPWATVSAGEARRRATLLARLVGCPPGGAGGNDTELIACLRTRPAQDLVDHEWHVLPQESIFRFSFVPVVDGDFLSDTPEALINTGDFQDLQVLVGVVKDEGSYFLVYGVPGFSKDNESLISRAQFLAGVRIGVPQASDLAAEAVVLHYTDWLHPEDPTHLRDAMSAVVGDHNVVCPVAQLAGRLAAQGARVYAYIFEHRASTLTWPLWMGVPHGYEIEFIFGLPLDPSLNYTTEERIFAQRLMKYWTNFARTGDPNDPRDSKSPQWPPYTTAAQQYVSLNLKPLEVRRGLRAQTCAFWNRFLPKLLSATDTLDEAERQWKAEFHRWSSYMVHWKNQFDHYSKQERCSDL
UniProt Q8IJ22, 1-359: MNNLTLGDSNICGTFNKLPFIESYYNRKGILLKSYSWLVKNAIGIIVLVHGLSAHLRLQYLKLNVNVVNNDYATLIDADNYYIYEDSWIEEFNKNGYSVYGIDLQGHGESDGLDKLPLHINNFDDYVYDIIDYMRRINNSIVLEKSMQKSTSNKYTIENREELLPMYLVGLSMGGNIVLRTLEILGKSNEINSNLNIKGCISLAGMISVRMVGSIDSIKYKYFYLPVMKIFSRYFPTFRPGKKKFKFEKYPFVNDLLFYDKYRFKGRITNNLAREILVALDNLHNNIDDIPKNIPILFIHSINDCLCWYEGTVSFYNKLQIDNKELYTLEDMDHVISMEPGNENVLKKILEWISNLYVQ
UniProt P41143, whole entry: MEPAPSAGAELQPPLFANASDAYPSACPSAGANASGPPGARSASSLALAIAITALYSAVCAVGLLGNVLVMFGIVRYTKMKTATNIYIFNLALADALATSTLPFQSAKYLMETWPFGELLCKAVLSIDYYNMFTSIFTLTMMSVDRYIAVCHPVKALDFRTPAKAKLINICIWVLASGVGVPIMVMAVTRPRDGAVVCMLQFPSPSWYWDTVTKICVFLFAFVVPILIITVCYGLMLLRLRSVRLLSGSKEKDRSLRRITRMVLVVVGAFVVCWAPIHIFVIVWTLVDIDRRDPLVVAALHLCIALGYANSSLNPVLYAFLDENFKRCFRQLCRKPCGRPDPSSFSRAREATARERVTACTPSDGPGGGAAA
UniProt P02708, whole entry, looked up: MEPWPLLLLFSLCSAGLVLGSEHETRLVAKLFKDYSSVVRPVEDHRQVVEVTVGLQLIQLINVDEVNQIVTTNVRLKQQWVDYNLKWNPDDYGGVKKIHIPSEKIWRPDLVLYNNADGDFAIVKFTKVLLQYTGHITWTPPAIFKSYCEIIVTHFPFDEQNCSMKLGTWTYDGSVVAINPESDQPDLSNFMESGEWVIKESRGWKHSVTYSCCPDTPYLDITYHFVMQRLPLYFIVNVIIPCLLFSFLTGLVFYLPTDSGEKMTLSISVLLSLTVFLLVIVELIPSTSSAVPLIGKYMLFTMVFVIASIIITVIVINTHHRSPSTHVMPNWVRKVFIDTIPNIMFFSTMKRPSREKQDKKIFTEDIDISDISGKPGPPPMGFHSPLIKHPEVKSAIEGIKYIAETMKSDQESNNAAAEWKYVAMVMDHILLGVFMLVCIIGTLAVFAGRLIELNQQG
UniProt P11230, whole entry, looked up: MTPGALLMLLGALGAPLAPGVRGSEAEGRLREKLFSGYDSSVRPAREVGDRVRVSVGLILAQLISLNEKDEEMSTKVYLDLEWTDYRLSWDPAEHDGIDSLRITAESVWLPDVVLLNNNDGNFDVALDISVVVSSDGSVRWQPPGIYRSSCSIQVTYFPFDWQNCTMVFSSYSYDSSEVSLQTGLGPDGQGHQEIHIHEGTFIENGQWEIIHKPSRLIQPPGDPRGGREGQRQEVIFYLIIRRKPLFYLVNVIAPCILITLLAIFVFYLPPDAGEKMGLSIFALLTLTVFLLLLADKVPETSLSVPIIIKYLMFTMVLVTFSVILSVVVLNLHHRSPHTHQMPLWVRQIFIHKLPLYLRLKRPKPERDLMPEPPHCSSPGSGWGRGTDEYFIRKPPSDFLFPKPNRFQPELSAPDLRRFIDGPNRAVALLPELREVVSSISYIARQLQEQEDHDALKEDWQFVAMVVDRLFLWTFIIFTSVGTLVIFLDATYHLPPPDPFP
UniProt Q04844, whole entry, looked up: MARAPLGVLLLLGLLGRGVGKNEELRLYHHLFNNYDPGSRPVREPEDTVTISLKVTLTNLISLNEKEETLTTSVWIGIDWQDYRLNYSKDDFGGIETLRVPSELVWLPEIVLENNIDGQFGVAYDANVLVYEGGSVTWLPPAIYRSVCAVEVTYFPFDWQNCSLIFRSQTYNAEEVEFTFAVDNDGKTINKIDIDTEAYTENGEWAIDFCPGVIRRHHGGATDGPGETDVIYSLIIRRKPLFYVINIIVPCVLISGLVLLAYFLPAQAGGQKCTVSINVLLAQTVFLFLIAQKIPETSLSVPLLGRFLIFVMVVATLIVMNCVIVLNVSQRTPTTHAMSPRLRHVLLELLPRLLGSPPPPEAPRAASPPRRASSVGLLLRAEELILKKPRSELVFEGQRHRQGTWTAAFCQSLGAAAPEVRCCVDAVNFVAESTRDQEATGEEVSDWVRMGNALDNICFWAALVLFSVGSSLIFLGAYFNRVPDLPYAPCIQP
UniProt Q07001, whole entry, looked up: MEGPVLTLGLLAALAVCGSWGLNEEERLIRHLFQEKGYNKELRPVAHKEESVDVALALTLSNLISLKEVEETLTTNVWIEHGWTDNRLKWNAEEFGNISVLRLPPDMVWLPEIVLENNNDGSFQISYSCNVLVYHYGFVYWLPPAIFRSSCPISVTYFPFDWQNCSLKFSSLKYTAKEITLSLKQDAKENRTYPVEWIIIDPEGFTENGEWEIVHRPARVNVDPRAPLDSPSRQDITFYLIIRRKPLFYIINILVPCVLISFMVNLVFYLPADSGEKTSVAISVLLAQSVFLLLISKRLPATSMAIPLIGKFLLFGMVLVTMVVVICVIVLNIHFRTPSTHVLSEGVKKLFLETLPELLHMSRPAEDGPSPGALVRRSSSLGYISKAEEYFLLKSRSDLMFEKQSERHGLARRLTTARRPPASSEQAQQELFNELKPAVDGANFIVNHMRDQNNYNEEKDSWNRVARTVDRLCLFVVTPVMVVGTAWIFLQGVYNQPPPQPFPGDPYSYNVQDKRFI
UniProt Q03311, whole entry, looked up: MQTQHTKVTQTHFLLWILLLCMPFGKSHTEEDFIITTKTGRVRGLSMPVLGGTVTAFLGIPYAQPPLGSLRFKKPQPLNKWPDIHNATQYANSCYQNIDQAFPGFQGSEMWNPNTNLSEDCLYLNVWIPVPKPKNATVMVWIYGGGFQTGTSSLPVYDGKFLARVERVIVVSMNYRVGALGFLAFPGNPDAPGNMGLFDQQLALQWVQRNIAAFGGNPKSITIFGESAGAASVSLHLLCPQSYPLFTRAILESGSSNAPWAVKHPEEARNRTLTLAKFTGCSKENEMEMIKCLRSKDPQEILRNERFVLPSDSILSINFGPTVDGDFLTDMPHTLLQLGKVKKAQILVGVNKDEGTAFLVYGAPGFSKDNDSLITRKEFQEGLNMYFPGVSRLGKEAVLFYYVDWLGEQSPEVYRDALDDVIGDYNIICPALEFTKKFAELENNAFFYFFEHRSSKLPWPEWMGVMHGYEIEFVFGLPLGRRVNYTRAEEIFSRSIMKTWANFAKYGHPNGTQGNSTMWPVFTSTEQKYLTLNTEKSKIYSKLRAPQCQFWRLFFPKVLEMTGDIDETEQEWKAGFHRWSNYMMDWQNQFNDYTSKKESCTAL

SMILES | tested on | assay | test system | conditions | endpoint | value
C#CCCCCP(=O)(OCC)Oc1ccccc1 (centres unmarked) | Monoacylglycerol lipase (Plasmodium falciparum, UniProt Q8IJ22) | enzyme activity, inhibitor | – | up to 25 µM | inhibition | no inhibition
NC(Cc1ccc([N+]([O-])(CCCl)CCCl)cc1)C(=O)O (centres unmarked) | Replicase polyprotein 1ab, main protease (rep, Severe acute respiratory syndrome coronavirus 2, UniProt P0DTD1) | – | – | 20 µM, primary screen | inhibition | 37.1%
NC12CC3CC(CC(C3)C1)C2 | Influenza A virus | viral replication | MDCK, A/Swine/Iowa/9-0805/2009 (H1N1) | – | EC50 | ≤ 100 µM
Cc1cc2c(-c3ccco3)cnc(N[C@H]3CCN(C)C[C@@H]3C(=O)NC3CCCCC3)c2[nH]c1=O | OPRD1 (Homo sapiens, UniProt P41143) | binding, radioligand binding | – | 10 µM | inhibition | 22%
CN(C(=O)Cc1ccc(Cl)c(Cl)c1)[C@H]1CC[C@@]2(CCCO2)C[C@@H]1N1CCCC1 | rep nsp13 helicase | helicase activity, inhibitor | – | 20 µM | inhibition | 2.17%
CCOP(=S)(OCC)Oc1nc(Cl)c(Cl)cc1Cl | Ache | – | ES1-/- mice, plasma | transdermal, 100.0 mg/kg, 6.0 h, toxicant challenge | inhibition | 70.1 ± 15.1%
CC[C@H](C)[C@@H]1NC(=O)CNC(=O)[C@H](CC(N)=O)NC(=O)[C@H](CC(N)=O)NC(=O)[C@H](CO)NC(=O)[C@@H]2CSSC[C@@H]3NC(=O)[C@H](CC(N)=O)NC(=O)[C@H]([C@@H](C)O)NC(=O)[C@H](CO)NC(=O)[C@H]([C@@H](C)O)NC(=O)[C@H](Cc4ccccc4)NC(=O)[C@@H]4CSSC[C@H](NC(=O)[C@H](CO)NC(=O)CNC(=O)[C@H](CCC(N)=O)NC3=O)C(=O)N[C@@H](CCC(=O)O)C(=O)N[C@H]3CSSC[C@H](NC(=O)CNC(=O)[C@@H]5CCCN5C(=O)[C@H](CCC(N)=O)NC(=O)[C@H](CCCNC(=N)N)NC1=O)C(=O)N[C@@H](CO)C(=O)N[C@@H](CSSC[C@H](NC(=O)CNC(=O)[C@@H]1C[C@@H](O)CN1C(=O)[C@@H]1C[C@@H](O)CN1C(=O)[C@H](CO)NC(=O)[C@H](CC(C)C)NC3=O)C(=O)N[C@@H](Cc1ccc(O)cc1)C(=O)N2)C(=O)N[C@@H]([C@@H](C)O)C(=O)N[C@H](C(=O)N1CCC[C@H]1C(=O)NCC(=O)N[C@H](C(N)=O)[C@@H](C)O)CSSC[C@H](NC(=O)[C@@H](NC(=O)[C@H](CO)NC(=O)CNC(=O)[C@@H](N)CO)[C@@H](C)O)C(=O)N[C@@H]([C@@H](C)O)C(=O)N4 | Nicotinic acetylcholine receptor alpha-1/beta-1/delta/epsilon (Homo sapiens, UniProt P02708+P11230+Q04844+Q07001) | ion current, antagonist | Xenopus oocytes | 1 µM, together with: acetylcholine 10 µM | inhibition | < 50%
CCOP(=O)(OCC)Oc1ccc([N+](=O)[O-])cc1 | Ache | – | ES1-/- mice, plasma | subcutaneous, 0.2 mg/kg, 0.5 h, toxicant challenge | inhibition | 61.4 ± 2.2%
O=c1c(O)c(-c2ccc(O)c(O)c2)oc2cc(O)cc(O)c12 | Replicase polyprotein 1ab, 3C-like proteinase (rep, Severe acute respiratory syndrome-related coronavirus, UniProt P0C6X7) | 3CLpro cleavage, luciferase reporter | Vero | concentration not given | inhibition | no inhibition
CNC(=O)Oc1cccc2c1OC(C)(C)C2 | Cholinesterase (Bche, Mus musculus, UniProt Q03311) | – | ES1+/+ mice, plasma | subcutaneous, 1.0 mg/kg, 0.5 h, toxicant challenge | inhibition | 25.8 ± 2.9%
CN(C)[C@]1(c2ccccc2)CC[C@]2(CC1)OCCc1c3cc(F)ccc3[nH]c12 | rep nsp13 helicase | helicase activity, inhibitor | – | 20 µM | inhibition | 3%

For quick reference, copied from above:
SMILES | tested on | assay | test system | conditions | endpoint | value
NC12CC3CC(CC(C3)C1)C2 | Influenza A virus | viral replication | MDCK, A/Swine/Iowa/9-0805/2009 (H1N1) | – | EC50 | ≤ 100 µM
